Measured values from different studies.
Parts stem from different laboratories: compare values within a part only. Substitutions count along the parent as printed.

Set 1 — method: protein-binding microarray; form: double-stranded DNA, one strand shown; sample: in vitro; tested at: 250 nM; setting: 60-bp whole probe; added: salmon DNA 0.4 mg/ml; baseline: random background probes; direction: higher = stronger binding; endpoint: log fluorescence; shared flanks, not repeated: GCCTAGCAC … GTCTTGATTCGCTTGACGCTGCTG
Target: Interferon regulatory factor 5, full length, phosphomimetic (IRF5, Homo sapiens, UniProt Q13568-2, residues 1-514, K96S/S451D/S453D/S456D/S462D)
TCAGTGCTCATTTTTTTACTGTGCTAG: 0.528 z-score
TCATTTTAGCTTCTCAAACTGTGCTAG: 0.257 z-score
TTAGGTATCGATTATCGGTTAGTGCTA: 8.43 z-score
TTAGAACTCAGACTGGATTAGTGCTAG: 0.0479 z-score
TCAGCATTTTTTTTATCACTGTGCTAG: 0.968 z-score
GAGGGTTTCGGTTTCGGGACGTGCTAG: 9.89 z-score
GGGGCTTGGGAGAGGCATCCGTGCTAG: -0.76 z-score
AGTGTCTCCATCAGAGGAGAGTGCTAG: -0.302 z-score
TTAGGTTTCGACACTGAGTTAGTGCTA: 6.19 z-score
ATATATATCCATTATAGATGGTGCTAG: 0.364 z-score
TCACCCATGAGTCTCAAACTGTGCTAG: -0.113 z-score
GACGGACAGCTTCTCCTGACGTGCTAG: -0.582 z-score
TTAGGACTGGGACTGGGGTAGTGCTAG: -0.474 z-score
TCAAGCCTCAGGCCTCACACTGTGCTA: -0.693 z-score
GAAGATTTCAGTTCCGAGACGTGCTAG: 1.15 z-score
GAGGGTCTCCTACTGCTGACGTGCTAG: -0.53 z-score
CCGCTTTTTTTTTTTTTTTTGTGCTAG: 0.788 z-score
TTAGGTCTCGGTTTCGGGTAGTGCTAG: 5.88 z-score
TTAGGGATCGACTTTCGGTTAGTGCTA: 9.66 z-score
TTACATCTCAGTCTCGATTAGTGCTAG: 1.49 z-score
TTAGGTCTCCTTTGCCTTTAGTGCTAG: -0.26 z-score
GACGGTTTCGGGTATCGGCACGTGCTA: 8.2 z-score
TTAGGTCTCGGACTGGGCTAGTGCTAG: -0.437 z-score
GACGGTACCGGGTTTCGGGACGTGCTA: 2.12 z-score
TTAGGTATTGGACTGGGTTAGTGCTAG: -0.312 z-score

Set 2 — target: UBE2J2 UBC core domain (UniProt Q8N2K1); method: yeast two-hybrid; sample: yeast; setting: mostly zero background; baseline: not given; direction: higher = stronger interaction; endpoint: lacZ reporter activity
B1: RNF122 RING domain (UniProt Q9H9V4); chain AKKLQLYGQTCAVCLEDFKGKDELGVLPCQHAFHRKCLVKWLEVRCVCPMCNKPIASPSEAT
B2: TRIM31 RING domain (UniProt Q9BZY9); chain FVNKLQEEVICPICLDILQKPVTIDCGHNFCLKCITQIGETSCGFFKCPLCKTSVRKNAIRF
B3: RNF187 RING domain (UniProt Q5TA31); chain ALPAGPAEAACALCQRAPREPVRADCGHRFCRACVVRFWAEEDGPFPCPECADDCWQRAVEP
B4: TRIM37 RING domain (UniProt O94972); chain SVESIAEVFRCFICMEKLRDARLCPHCSKLCCFSCIRRWLTEQRAQCPHCRAPLQLRELVN
B5: RNF152 RING domain (UniProt Q8N8N0); chain ETLSQDSLLECQICFNYYSPRRRPKLLDCKHTCCSVCLQQMRTSQKDVRCPWCRGVTKLPPGFS
B6: TRIM26 RING domain (UniProt Q12899); chain PLRSLEEEVTCSICLDYLRDPVTIDCGHVFCRSCTTDVRPISGSRPVCPLCKKPFKKENIRP
B7: MKRN2 RING domain (UniProt Q9H000); chain FAFQASQDKVCSICMEVILEKASASERRFGILSNCNHTYCLSCIRQWRCAKQFENPIIKSCPECRVISEFVIPSV
B8: MYCBP2 RING domain (UniProt O75592); chain TSLKQDADDMCMICFTEALSAAPAIQLDCSHIFHLQCCRRVLENRWLGPRITFGFISCPICKNKINHIVLKD
B9: RNF31 RING domain (UniProt Q96EP0); chain AFLRRLLAQECAVCGWALPHNRMQALTSCECTICPDCFRQHFTIALKEKHITDMVCPACGRPDLTDDTQLL
B10: DEF8 RING domain (UniProt Q6ZN54); chain AGRLGCSLTEIHTLFAKHIKLDCERCQAKGFVCELCREGDVLFPFDSHTSVCADCSAVFHRDCYYDNSTTCPKCARLSLRK
B11: RLIM RING domain (UniProt Q9NVW2); chain SFGENDALKTCSVCITEYTEGNKLRKLPCSHEYHVHCIDRWLSENSTCPICRRAVLASGNRE
B12: TRIM60 RING domain (UniProt Q495X7); chain ALVNLQEESSCPICLEYLKDPVTINCGHNFCRSCLSVSWKDLDDTFPCPVCRFCFPYKSFRR
Target sequence (chain): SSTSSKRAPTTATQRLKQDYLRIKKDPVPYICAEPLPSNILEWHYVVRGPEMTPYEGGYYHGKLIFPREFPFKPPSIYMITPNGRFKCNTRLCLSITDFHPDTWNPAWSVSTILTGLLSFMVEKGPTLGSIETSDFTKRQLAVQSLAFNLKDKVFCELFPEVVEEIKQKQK
YPEEVDDDLICHICLQALLDPLDTPCGHTYCTLCLTNFLVEKDFCPMDRKPLVLQHCKK (LNX1 RING domain (UniProt Q8TBB1)): 0
B1 (RNF122 RING domain): 0
FVKTVEDKYKCEKCHLVLCSPKQTECGHRFCESCMAALLSSSSPKCTACQESIVKDKVF (TRAF3 RING domain (UniProt Q13114)): 0
B2 (TRIM31 RING domain): 0
B3 (RNF187 RING domain): 0
B4 (TRIM37 RING domain): 0
B5 (RNF152 RING domain): 2670
B6 (TRIM26 RING domain): 0
B7 (MKRN2 RING domain): 0
PEELAVNNDDCAICWDSMQAARKLPCGHLFHNSCLRSWLEQDTSCPTCRMSLNIADNNR (AMFR RING domain (UniProt Q9UKV5)): 0
B8 (MYCBP2 RING domain): 0
B9 (RNF31 RING domain): 2750
B10 (DEF8 RING domain): 0
B11 (RLIM RING domain): 0
B12 (TRIM60 RING domain): 0

Set 3 — target: CCND1, cyclin fold, Cln2 fusion (human); method: yeast growth competition, sequencing; sample: yeast; setting: weak parent motif; baseline: not given; direction: higher = stronger binding; endpoint: normalised enrichment score
Parent: PKMYT1 docking peptide (human); SFEPRNLLSLFED; partner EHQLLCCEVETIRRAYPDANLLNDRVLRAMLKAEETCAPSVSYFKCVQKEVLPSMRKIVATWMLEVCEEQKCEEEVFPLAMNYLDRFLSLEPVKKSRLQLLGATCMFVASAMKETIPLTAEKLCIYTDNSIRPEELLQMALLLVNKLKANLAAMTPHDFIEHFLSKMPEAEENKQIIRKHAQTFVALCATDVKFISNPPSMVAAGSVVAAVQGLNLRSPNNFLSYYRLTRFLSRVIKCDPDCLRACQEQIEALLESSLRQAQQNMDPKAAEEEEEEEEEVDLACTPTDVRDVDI
F2V: 0.341
F11S: 1.23
R5Q: 1.51
F11Q: 0.284
R5T: 1.01
E3W: 0.244
D13K: 1.01
L10A: 1.44
F2Y: 0.646
F2W: 0.6
R5W: 1.49
L10F: 0.866
R5E: 1.27
D13V: 0.794
N6I: 1.84

Set 4 — method: DHFR PCA, deep sequencing; sample: yeast; added: (+)-ABA 4.8 µM; baseline: wild-type fitted maximum; direction: higher = stronger binding; endpoint: relative binding score
Target: ABI1, truncated, D143A, DHFR fusion (Arabidopsis thaliana)
Setting: methotrexate growth selection, single substitutions
Parent: PYL1, truncated, DHFR fusion (Arabidopsis thaliana); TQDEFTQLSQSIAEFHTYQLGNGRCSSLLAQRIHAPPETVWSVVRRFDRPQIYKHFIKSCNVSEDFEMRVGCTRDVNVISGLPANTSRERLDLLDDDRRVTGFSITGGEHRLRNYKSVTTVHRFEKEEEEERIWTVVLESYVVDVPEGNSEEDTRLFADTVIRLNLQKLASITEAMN; partner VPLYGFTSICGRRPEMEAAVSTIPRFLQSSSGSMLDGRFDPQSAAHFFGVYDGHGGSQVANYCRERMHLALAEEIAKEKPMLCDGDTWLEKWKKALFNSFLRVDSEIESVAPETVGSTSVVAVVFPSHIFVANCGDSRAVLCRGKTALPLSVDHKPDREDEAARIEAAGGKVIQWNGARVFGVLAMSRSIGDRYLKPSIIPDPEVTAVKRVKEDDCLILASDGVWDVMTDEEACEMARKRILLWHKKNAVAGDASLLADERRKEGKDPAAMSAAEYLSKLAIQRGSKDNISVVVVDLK
E127S: 80.5%
T120L: -6.7%
L8S: 11.7%
M176Y: 51.5%
W41Q: -0.908%
T154H: -1.28%
Q10W: 41.8%
G108M: -5.82%
K116T: 52.6%
H34I: 45.2%
K54Y: -2.77%
L166A: -3.84%
L94A: 0.795%
E139V: 63.6%
G108K: 8.45%

Set 5 — method: competition protein-binding microarray; form: double-stranded DNA, one strand shown; sample: in vitro; tested at: 2 µM; added: Pho4 competitor, 0.05 µM; direction: higher = stronger binding; endpoint: fluorescence intensity
Target: Centromere-binding protein 1, full length, His-tagged (CBF1, Saccharomyces cerevisiae, UniProt P17106, residues 1-351)
Sequence of UniProt P17106 (whole entry, looked up): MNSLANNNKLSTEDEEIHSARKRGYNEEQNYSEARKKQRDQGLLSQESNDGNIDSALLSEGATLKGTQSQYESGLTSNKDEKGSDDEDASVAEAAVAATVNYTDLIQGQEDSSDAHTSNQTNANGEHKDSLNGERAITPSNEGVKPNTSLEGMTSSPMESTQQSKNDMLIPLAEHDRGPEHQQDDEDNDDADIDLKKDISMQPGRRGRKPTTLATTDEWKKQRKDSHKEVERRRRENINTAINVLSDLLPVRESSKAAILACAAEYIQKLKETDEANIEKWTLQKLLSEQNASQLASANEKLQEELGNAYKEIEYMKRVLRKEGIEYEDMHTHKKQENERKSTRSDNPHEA
Setting: whole 60-bp probe, lowest competitor level
CGTCCTAGTGATTGCAGTGTGGGTGCCATGAGGAAGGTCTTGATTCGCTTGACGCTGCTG: 97 a.u.
CATACCCAACCTTCGCACGTGTTTTAAGATATTTGTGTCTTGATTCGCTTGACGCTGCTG: 1220 a.u.
CTACCAATGTAGTCAAACGTGAAGCCGGGCTTGGAAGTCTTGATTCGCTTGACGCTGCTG: 71 a.u.
AGGGATACCGCTACCCACGTACCCCAAGACCAGCCCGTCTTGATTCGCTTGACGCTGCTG: 57.1 a.u.
AAAGCGGTAATTTTTCACGTGTCGTCAAATATCTATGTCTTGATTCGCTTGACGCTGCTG: 1690 a.u.
TGCGCAACAACTTGTGCCGTGGGTGTATGTCTAGAAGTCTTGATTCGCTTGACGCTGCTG: 73.1 a.u.
TGCGCAACAACTTGTCGAGTGGGTGTATGTCTAGAAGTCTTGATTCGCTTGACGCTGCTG: 67.2 a.u.
CTAACGAAGGTTTGATGCGTGGGTGACAAGCCAAGTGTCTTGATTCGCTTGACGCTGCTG: 68.4 a.u.
GCCCATTAAAAATAATATGTGTGAGCTTCTTCCACAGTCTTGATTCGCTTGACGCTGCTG: 76.6 a.u.
TTATCGGTCTCGAGTCACGTGCGGAGACGCGGAGGCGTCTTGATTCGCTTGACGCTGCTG: 6160 a.u.
TCCCGTACATCGATGTACGTGATGGGTTTTTCTCATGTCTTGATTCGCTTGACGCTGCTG: 111 a.u.
CGTCCTAGTGATTTTCACGTGCTCTCCATGAGGAAGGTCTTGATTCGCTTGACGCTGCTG: 1410 a.u.
TGCGCAACAACTTGCTGGGTGGGTGTATGTCTAGAAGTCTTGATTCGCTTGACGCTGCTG: 63.1 a.u.
ATACGCCTTTTCGATGGCGTGCTTTTTAATATGTCTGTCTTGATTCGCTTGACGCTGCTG: 102 a.u.
GCGTAGACGGATTTGCACGATGCGATGATAAATATTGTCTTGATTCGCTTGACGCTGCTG: 71.3 a.u.
TTGAGTGTCGTCTGGCACGTGGAGGTCCCTCCTCAGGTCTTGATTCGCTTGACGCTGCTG: 557 a.u.
AAGCCAAAGAAACAGCATGTGGTTCAGCGGCCTTGCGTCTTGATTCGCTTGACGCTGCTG: 75 a.u.
GTCTTGTCTCATTGTGTTGTGGGTGTCCCCACTTCAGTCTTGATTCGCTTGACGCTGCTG: 107 a.u.
AGAGGTATTACCCATCACGTGATGGTTATTTCTTTTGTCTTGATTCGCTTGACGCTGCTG: 18300 a.u.
CGGCCGGAGTTTTATCACATGGATGTTTCTTATTCCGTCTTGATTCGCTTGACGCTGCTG: 248 a.u.
CTTCCAAGGTGAGGACACGGGTTCGATTCTCGTACCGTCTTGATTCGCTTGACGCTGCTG: 92.3 a.u.
AATCTCTGGCTTCACCACGTTTTCCAGCTTCAAAGAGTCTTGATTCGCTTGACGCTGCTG: 92 a.u.
AGGTCGCTAAAAATCCACGTTAACGGGACGCTGGTAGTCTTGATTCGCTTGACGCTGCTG: 64.3 a.u.
CGTCCTAGTGATTGTACTGTGGGTGCCATGAGGAAGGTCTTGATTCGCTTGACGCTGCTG: 108 a.u.
AAATTACTAAGTTGTCACAACACTTACCCCGTATGAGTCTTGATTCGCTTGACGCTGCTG: 111 a.u.

Some of these lines once more (set 1):
CCGCTTTTTTTTTTTTTTTTGTGCTAG: 0.788 z-score
TTAGGGATCGACTTTCGGTTAGTGCTA: 9.66 z-score
TTAGGTTTCGACACTGAGTTAGTGCTA: 6.19 z-score
TTACATCTCAGTCTCGATTAGTGCTAG: 1.49 z-score
GACGGTTTCGGGTATCGGCACGTGCTA: 8.2 z-score
TTAGGTCTCGGACTGGGCTAGTGCTAG: -0.437 z-score
TCAGTGCTCATTTTTTTACTGTGCTAG: 0.528 z-score
GACGGACAGCTTCTCCTGACGTGCTAG: -0.582 z-score
